Results gathered from unrelated publications.
Numbered parts are unrelated; each lists some results of a single study. Values joined by “and” are separate records of one study, mostly repeats; a detail may differ. Substitutions count along the parent as printed.

Series 1
Target: CRIPT, C-terminal peptide
Method: DHFR complementation, deep sequencing
Matrix: yeast
Notes: single substitutions, model-inferred values
Relative to: wild type
Reading: higher = weaker binding
Measurement: binding free energy change
Starting sequence: ERBIN, PDZ domain 1 (human); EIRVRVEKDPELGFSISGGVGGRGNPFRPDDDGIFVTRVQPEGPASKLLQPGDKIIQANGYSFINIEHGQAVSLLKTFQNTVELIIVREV; partner TKNYKQTSV
N80D: -0.0159 kcal/mol
T77S: -0.0971 kcal/mol
Q57E: -0.0302 kcal/mol
H68L: 1.14 kcal/mol
E7V: -0.0428 kcal/mol

Series 2
Target: ABI1, truncated, D143A, DHFR fusion (Arabidopsis thaliana)
Method: DHFR PCA, deep sequencing
Matrix: yeast
Notes: methotrexate growth selection, single substitutions
With: (+)-ABA 0.39 µM
Relative to: wild-type fitted maximum
Reading: higher = stronger binding
Measurement: relative binding score
Starting sequence: PYL1, truncated, DHFR fusion (Arabidopsis thaliana); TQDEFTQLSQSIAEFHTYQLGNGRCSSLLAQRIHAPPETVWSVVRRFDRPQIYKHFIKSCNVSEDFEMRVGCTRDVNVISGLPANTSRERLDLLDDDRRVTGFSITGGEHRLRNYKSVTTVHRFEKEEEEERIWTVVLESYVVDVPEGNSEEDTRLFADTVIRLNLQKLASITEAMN
P50T: 9.23%
T17N: 5.28%
T135F: -9.75%
V145I: 42%

Series 3
Target: CCND2, cyclin fold, Cln2 fusion (human)
Method: yeast growth competition, sequencing
Matrix: yeast
Notes: strong parent motif
Relative to: not given
Reading: higher = stronger binding
Measurement: normalised enrichment score
Starting sequence: INSM1 docking peptide (human); PKAIRKLHFEDEV; partner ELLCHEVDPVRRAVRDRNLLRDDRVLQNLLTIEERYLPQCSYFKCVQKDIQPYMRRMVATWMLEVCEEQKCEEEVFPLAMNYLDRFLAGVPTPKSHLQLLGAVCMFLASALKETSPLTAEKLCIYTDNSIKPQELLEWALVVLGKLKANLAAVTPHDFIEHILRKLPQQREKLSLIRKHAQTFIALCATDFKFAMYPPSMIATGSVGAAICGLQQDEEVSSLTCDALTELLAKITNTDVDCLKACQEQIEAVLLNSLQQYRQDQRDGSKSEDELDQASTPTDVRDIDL
PWAIRKLHFEDEV [K2W]: 0.969
PKAIIKLHFEDEV [R5I]: 0.495
PKAIRPLHFEDEV [K6P]: 0.0929
PKAIHKLHFEDEV [R5H]: 0.215

Other studies, line by line
PhoQ, residues 284 288 289 292 302 303 ALASRC  fold induction (PhoP, residues 12 14 15 18 19 LWHCS (Escherichia coli, UniProt P23836); Sort-seq, measured: YFP reporter; E. coli; PhoQ-PhoP variant library, with: 10 µM Mg2+; relative to: high Mg2+ state, higher = stronger signaling): 11 and 9.97

A few entries again (series 3):
PKAIRPLHFEDEV [K6P]: 0.0929
PKAIHKLHFEDEV [R5H]: 0.215
